Results gathered from unrelated publications.
Each line is one published result; not all experiments were run side by side. ± marks the error that the study gave.

CCN(C(=O)c1cc(F)ccc1Oc1nncnc1N1CCC2(C1)CN([C@H](CCCN(C)CCOC)C(C)C)C2)C(C)C  GI50 (MDA-MB-435; cell growth or viability; 72 h): > 10 µM
Cc1ncsc1-c1ccc(C(C)NC(=O)C2CC(O)CN2C(=O)C(NC(=O)CCCCCCCCCCN2CCCC(Nc3ncc(Cl)c(Nc4ccccc4S(=O)(=O)C(C)C)n3)C2)C(C)(C)C)cc1 (stereo not drawn)  log2 fold change (22Rv1; RNA-seq, refers to: RPAP1 mRNA; concentration not given; relative to: DMSO): -1.06
CCCC[C@H](NC(=O)COCCOCCNC(=O)CN1CCN(CC(=O)O)CCN(CC(=O)O)CC1)C(=O)N[C@H]1CC(=O)NCCCC[C@@H](C(N)=O)NC(=O)[C@H](Cc2c[nH]c3ccccc23)NC(=O)[C@H](CCCNC(=N)N)NC(=O)[C@@H](Cc2ccccc2)NC(=O)[C@H](Cc2c[nH]cn2)NC1=O [technetium-99m labelled]  tissue uptake (C57 mouse, heart; intravenous, 0.037 MBq, 0.5 h): 1.42 ± 0.62 %ID/g
Cn1ncc2cc(-c3cncc(Cl)c3N3CCC4(CCNC4=O)CC3)ccc21  log2 fold change (LS174T; gene expression, microarray, refers to: MT1F mRNA; concentration not given, 24 h; relative to: untreated cells): -2.01
Nc1ncc(-c2cc(-c3cnn(CC(F)(F)F)c3)ncc2F)nc1C(=O)NC1CNCC(F)C1 (stereo not drawn)  remaining binding (PRKX; KINOMEscan; 1 µM; relative to: DMSO control): 23%
COC1CN([C@H]2CC[C@H]([C@@]3(C)Oc4c(Cl)cc(C(=O)NCc5c(SC)cc(C)[nH]c5=O)c(C)c4O3)CC2)C1  log2 fold change (RNA-seq, refers to: PLAG1 mouse homolog; mouse, HT-1376 xenograft, whole blood; dose not given; relative to: vehicle): 1.74
C=CC(=O)Nc1cccc(Cn2ncc3cnc(Nc4cnn(CCOC)c4)nc32)c1  percent of control (ERN1 human; binding, KINOMEscan; 100 nM; lower = stronger binding): 100%
CCCC[C@H](NC(=O)CCCCCCCNC(=O)CN1CCN(CC(=O)O)CCN(CC(=O)O)CC1)C(=O)N[C@H]1CC(=O)NCCCC[C@@H](C(N)=O)NC(=O)[C@H](Cc2c[nH]c3ccccc23)NC(=O)[C@H](CCCNC(=N)N)NC(=O)[C@@H](Cc2ccccc2)NC(=O)[C@H](Cc2c[nH]cn2)NC1=O [technetium-99m labelled]  tissue uptake (C57 mouse, bone; intravenous, 0.037 MBq, 4 h): 0.02 %ID/g
C=C1CC[C@H](OCCCNC(=O)CCOCCOCCOCCOCCOCCOCCOCCOCCOCCOCCOCCOCCOCCOCCOCCOCCOCCOCCOCCOCCOCCOCCOCCOCCOCCOCCOCCOCCOCCOCCOCCOCCOCCOCCOCCOCCNC(=O)CCN2C(=O)CC(SC[C@H](NC(=O)[C@H](Cc3ccccc3)NC(=O)[C@H](CC(N)=O)NC(=O)[C@H](Cc3c[nH]cn3)NC(=O)[C@@H](NC(=O)[C@H](CC(=O)O)NC(=O)[C@H](CCC(N)=O)NC(=O)[C@H](CC(C)C)NC(=O)[C@H](CCCCN)NC(=O)[C@H](CCCCN)NC(=O)[C@H](CCCNC(=N)N)NC(=O)[C@H](CC(C)C)NC(=O)[C@H](Cc3c[nH]c4ccccc34)NC(=O)[C@H](CCC(=O)O)NC(=O)[C@@H](NC(=O)[C@H](CCCNC(=N)N)NC(=O)[C@H](CCC(=O)O)NC(=O)[C@H](CCSC)NC(=O)[C@H](CO)NC(=O)[C@H](CC(N)=O)NC(=O)[C@H](CC(C)C)NC(=O)[C@H](Cc3c[nH]cn3)NC(=O)[C@H](CCCCN)NC(=O)CNC(=O)[C@H](CC(C)C)NC(=O)[C@H](CC(N)=O)NC(=O)[C@H](Cc3c[nH]cn3)NC(=O)[C@H](CCSC)NC(=O)[C@H](CC(C)C)NC(=O)[C@H](CCC(N)=O)NC(=O)[C@@H](NC(=O)[C@H](CCC(=O)O)NC(=O)[C@H](CO)NC(=O)[C@@H](NC(=O)[C@@H](N)CO)C(C)C)[C@@H](C)CC)C(C)C)C(C)C)C(=O)O)C2=O)C/C1=C/C=C1\CCC[C@]2(C)[C@@H]([C@H](C)CCCC(C)(C)O)CC[C@@H]12 (stereo partly drawn)  Cmax (male Sprague-Dawley rat, plasma; subcutaneous, 300 µg/kg, single dose): 109 ng/mL
CC(C)C[C@@H](NC(=O)[C@@H](CC(C)C)NC(=O)[C@@H](CC(=O)O)NC(=O)[C@@H](CC(C)C)NC(=O)[C@@H](CC(C)C)NC(=O)[C@@H](CC(C)C)NC(=O)[C@H](NC(=O)[C@@H](CC(=O)O)NC(=O)[C@H](NC(=O)[C@H]1CCCN1C(=O)[C@@H](Cc1ccccc1)NC(=O)[C@@H](CC(C)C)NC(=O)[C@@H](CC(C)C)NC(=O)[C@@H](CC(=O)O)NC(=O)[C@@H](CC(C)C)NC(=O)[C@@H](Cc1ccc(O)cc1)NC(=O)[C@@H](C)NC(=O)[C@@H](CCCNC(=N)N)NC(=O)[C@@H](Cc1c[nH]c2ccccc12)NC(=O)[C@H]1CCCN1C(=O)[C@@H](CC(N)=O)NC(=O)[C@@H](CCC(N)=O)NC(=O)[C@@H](CC(=O)O)NC(=O)[C@@H](CC(=O)O)NC(=O)[C@@H](CSC1CC(=O)N(CCNC(=O)CN2CCN(CC(=O)O)CCN(CC(=O)O)CC2)C1=O)NC(=O)[C@@H](C)N)[C@H](C)O)[C@H](C)O)C(=O)N[C@H](Cc1c[nH]c2ccccc12)C(=O)O (stereo partly drawn) [fluorine-18 labelled]  tissue uptake (female C57BL/6 mice, B16-F10 melanoma, tumor; intravenous, 4 h): 8.23 %ID/g
CN1CCCNC(=O)c2cccc(c2)C(=O)NCCCN(C)CCCNc2cccc3c2C(=O)c2cccc(c2C3=O)NCCC1  log2 fold change (SAS; RNA-Seq, refers to: NLRX1 mRNA; 1 µM, 6 h; relative to: untreated cells): 1.41
CNS(=O)(=O)Nc1nccc(Cc2c(C)c3ccc(Oc4ncccc4F)cc3oc2=O)c1F  IC50 (NCI-H524; cell viability; 7 days): > 1000 nM

Some of these lines once more:
CN1CCCNC(=O)c2cccc(c2)C(=O)NCCCN(C)CCCNc2cccc3c2C(=O)c2cccc(c2C3=O)NCCC1  log2 fold change (SAS; RNA-Seq, refers to: NLRX1 mRNA; 1 µM, 6 h; relative to: untreated cells): 1.41
